Results from different studies.
Lines come from different studies, so protocols differ. Values joined by “and” are separate records of one study, mostly repeats; a detail may differ. ± gives the spread as reported.

| Compound | target or system | test | system | conditions | measurement | result |
| --- | --- | --- | --- | --- | --- | --- |
| Cc1ccc(OCCN(C)C)cc1C(=O)N[C@H](C)c1cc(-c2cnn(C3CNC3)c2)nc2ccccc12 | Vero E6 | – | – | 15.62 µM | viability | 99.6% and 105% |
| CC[C@H](C)[C@H]1NC(=O)[C@@H](C)N(C)C(=O)[C@H](C)N(C)C(=O)[C@H](CC(C)C)NC(=O)[C@H](Cc2ccccc2)N(C)C(=O)[C@H](C(C)C)NC(=O)[C@@H](C(C)C)NC1=O | HCT-116 | cell viability, CellTiter-Glo ATP | – | 72 h | CC50 | > 10 µM |
| C[C@H](NC(=O)Cc1cc(F)cc(F)c1)C(=O)N[C@@H]1C(=O)N(C)c2ccccc2-c2ccccc21 | MEF | cell viability, CellTiter-Glo | – | 48 h, uninfected | CC50 | 48.5 µM |
| O=[N+]([O-])c1ccc(-n2nc(-c3ccc(F)cc3)cc2-c2ccc(F)cc2)c([N+](=O)[O-])c1 | Neuro2a | MTT | – | 48 h | CC50 | ~75 µM |
| NC(=O)c1cc(-c2cncnc2)ccc1OCCc1cccc(F)c1 | HepG2 | – | galactose medium | 3 (unit not given) | CC50 | > 100 µM |
| O=C1NC2(CC2)COc2ncc(F)cc2[C@H]2COCCN2c2ccn3ncc1c3n2 | – | – | Sprague-Dawley rat, male, kidneys | oral, 10 mg/kg/day, 4 weeks, end of treatment | organ-to-brain weight ratio | 166 ± 47.3% |
| Cc1ccc(-c2cc(-c3ccccc3)nn2-c2ccc([N+](=O)[O-])cc2[N+](=O)[O-])cc1 | Neuro2a | MTT | – | 48 h | CC50 | ~10 µM |
| CC[C@H](C)[C@H]1NC(=O)[C@@H](C)N(C)C(=O)[C@H](C)N(C)C(=O)[C@H](CC(C)C)NC(=O)[C@H](CC(C)C)N(C)C(=O)[C@H](C)N(C)C(=O)[C@@H]([C@@H](C)CC)NC1=O | HCT-116 | CellTiter-Glo ATP | – | 72 h, 0.1% DMSO | CC50 | 0.1 ± 0.009 µM |
| [Cl-].[Cl-].[Ru+2].c1ccc(-c2ccccn2)nc1.c1ccc(-c2ccccn2)nc1.c1ccc2cc3nc4c5cccnc5c5ncccc5c4nc3cc2c1 | SK-MEL-28 | cytotoxicity, sulforhodamine B | – | red light, normoxia | CC50 | 0.153 µM |
| C[C@H](NC(=O)[C@@H](O)c1cc(F)cc(F)c1)C(=O)N[C@@H]1C(=O)N(C)c2ccccc2-c2ccccc21 | Raji DC-SIGN | cell viability, CellTiter-Glo | – | 48 h, uninfected | CC50 | 242 µM |
| CN(C)S(=O)(=O)c1ccc2c(c1)N(CCCN1CCC(CCO)CC1)c1ccccc1S2 | African green monkey cells | – | – | 5 days | CC50 | 7.33 µM |
| CC[C@H](C)[C@@H]1NC(=O)[C@@H]([C@@H](C)CC)NC(=O)[C@@H]([C@@H](C)CC)NC(=O)[C@@H](C)N(C)C(=O)[C@H](C)N(C)C(=O)[C@H](CC(C)C)NC(=O)[C@H](Cc2ccccc2)N(C)C1=O | HCT-116 | cell viability, CellTiter-Glo ATP | – | 72 h | CC50 | > 10 µM |
| NC(=O)c1cc(-c2ccsc2)ccc1OCCc1cc(F)cc(F)c1 | HepG2 | – | galactose medium | 3 (unit not given) | CC50 | > 100 µM |
| Nc1nc(Nc2ccc(Cl)c(Cl)c2)nn1S(=O)(=O)c1ccc2ccccc2c1 | African green monkey cells | – | – | – | CC50 | 3.4 µM |
| O=C(N[C@@H](Cc1ccccc1)C(=O)N[C@@H](C[C@@H]1CCNC1=O)C(O)S(=O)(=O)O)OCc1ccccc1 (stereo partly shown) | HCT-8 | – | – | 5 (unit not given) | CC50 | > 250 µM |
| Cc1ccc(-c2cc(-c3ccc(F)cc3)nn2-c2ccc([N+](=O)[O-])cc2[N+](=O)[O-])cc1 | Neuro2a | MTT | – | 48 h | CC50 | ~1 µM |
| CC[C@H](C)[C@H]1NC(=O)[C@@H](Cc2ccccc2)N(C)C(=O)[C@H](C)N(C)C(=O)[C@H](CC(C)C)NC(=O)[C@H](CC(C)C)N(C)C(=O)[C@H](C)N(C)C(=O)[C@@H]([C@@H](C)CC)NC1=O | HCT-116 | CellTiter-Glo ATP | – | 72 h, 0.1% DMSO | CC50 | 0.02 ± 0.001 µM |
| NC(=O)c1cc(-c2cccnc2)ccc1OCCc1cccc(F)c1 | HepG2 | – | galactose medium | 3 (unit not given) | CC50 | 49 ± 2 µM |
| Cc1ccc(N2C[C@@H]3C[C@H]2CN3C)cc1C(=O)N[C@H](C)c1cc(-c2cnn(C)c2)nc2ccccc12 | Vero E6 | – | – | 125 µM | viability | 2.77% |

Repeated from above:
| Compound | target or system | test | system | conditions | measurement | result |
| --- | --- | --- | --- | --- | --- | --- |
| Cc1ccc(-c2cc(-c3ccc(F)cc3)nn2-c2ccc([N+](=O)[O-])cc2[N+](=O)[O-])cc1 | Neuro2a | MTT | – | 48 h | CC50 | ~1 µM |
| Nc1nc(Nc2ccc(Cl)c(Cl)c2)nn1S(=O)(=O)c1ccc2ccccc2c1 | African green monkey cells | – | – | – | CC50 | 3.4 µM |
| CC[C@H](C)[C@@H]1NC(=O)[C@@H]([C@@H](C)CC)NC(=O)[C@@H]([C@@H](C)CC)NC(=O)[C@@H](C)N(C)C(=O)[C@H](C)N(C)C(=O)[C@H](CC(C)C)NC(=O)[C@H](Cc2ccccc2)N(C)C1=O | HCT-116 | cell viability, CellTiter-Glo ATP | – | 72 h | CC50 | > 10 µM |
